Experimental data pooled from the literature.
Protocols differ between the studies behind these lines. Values joined by “and” are separate records of one study, mostly repeats; a detail may differ. ± marks the error that the study gave.

CC/C(=C(\c1ccccc1)c1ccc(OCCN(C)C)cc1)c1ccccc1
EC20 (cytochrome c release, ELISA; BALB/cByJ female mouse liver mitochondria; 30 min; relative to: alamethicin maximal release): 7700 nM

CN1CCN(c2ccc3nc(-c4c(N)c5c(F)cccc5[nH]c4=O)[nH]c3c2)CC1
AUC (patients, plasma; oral, 300 mg, day 1, AUC 0-24 h minimum concurrent dosing, together with: gemcitabine and capecitabine): 1530 ng·h/mL

CC[C@H]1OC(=O)[C@H](C)[C@@H](O[C@H]2C[C@@](C)(OC)[C@@H](O)[C@H](C)O2)[C@H](C)[C@@H](O[C@@H]2O[C@H](C)C[C@H](N(C)C)[C@H]2O)[C@](C)(O)C[C@@H](C)C(=O)[C@H](C)[C@@H](O)[C@]1(C)O
sensitive strains (all pathogens; community-acquired pneumonia patients; Fine score below 70): 17.6%

C[C@@]12C[C@@]3(O)O[C@@H](O1)[C@]1(COC(=O)c4ccccc4)[C@H]3C[C@@]12O[C@@H]1O[C@H](CO)[C@@H](O)[C@H](O)[C@H]1O
accuracy (extracted rat plasma, autosampler; 11250 ng/mL, 24 h, 4 °C, post-preparative stability, high QC): 100 % nominal

C[C@H]1O[C@@H](O[C@H]2[C@@H](O)C[C@H](O[C@H]3[C@@H](O)C[C@H](O[C@H]4CC[C@@]5(C)[C@H](CC[C@@H]6[C@@H]5C[C@@H](O)[C@]5(C)[C@@H](C7=CC(=O)OC7)CC[C@]65O)C4)O[C@@H]3C)O[C@@H]2C)C[C@H](O)[C@@H]1O
serum concentration increase (patients, serum; oral, dose not given, together with: P-gp inhibitors; relative to: without P-gp inhibitors): 20 to 60%

CCc1ccc(CCOc2ccc(CC3SC(=O)NC3=O)cc2)nc1 (stereo not shown)
intrinsic hepatic clearance (parallel tube model; human; from oral clearance): 66 L/h

C=CC(=O)Nc1cc(Nc2nccc(-c3cn(C)c4ccccc34)n2)c(OC)cc1N(C)CCN(C)C
apparent oral clearance (male Sprague-Dawley rat, plasma; oral, 10 mg/kg, PEG200 pretreatment only): 329 ± 97.3 mL/min/kg

CCNC(=O)[C@@H]1CCCN1C(=O)[C@H](CCCNC(=N)N)NC(=O)[C@H](CC(C)C)NC(=O)[C@@H](CC(C)C)NC(=O)[C@H](Cc1ccc(O)cc1)NC(=O)[C@H](CO)NC(=O)[C@H](Cc1c[nH]c2ccccc12)NC(=O)[C@H](Cc1c[nH]cn1)NC(=O)[C@@H]1CCC(=O)N1
permeated fraction (membrane in isopropyl myristate; 0.5 mg/mL, 12 h, pH 6.8, 37 °C, receiver 0.5% Tween 80): 17.8%

CC(C)(C)c1nn(-c2cc(OCc3cn(Cc4cccc(C(F)(F)F)c4)nn3)c(Cl)cc2Cl)c(=O)o1
IC50 (Toxoplasma gondii; intracellular parasite growth, luminescence; HFF, wild type, NanoLuc reporter; 96 h): < 2500 nM and 1400 nM

COc1cc2c(Nc3ccc(Br)cc3F)ncnc2cc1OCC1CCN(C)CC1
elimination rate constant (male FVB mice, plasma; intravenous, 5 mg/kg): 0.43 h⁻¹

CC1(C)S[C@@H]2[C@H](NC(=O)[C@H](N)c3ccc(O)cc3)C(=O)N2[C@H]1C(=O)O
sensitive strains (all pathogens; community-acquired pneumonia patients; Fine score 70 or more): 55.8%

NCCCC[C@@H]1NC(=O)[C@@H](Cc2c[nH]c3ccccc23)NC(=O)[C@H](c2ccccc2)NC(=O)[C@@H]2C[C@@H](OC(=O)NCCN)CN2C(=O)[C@H](Cc2ccccc2)NC(=O)[C@H](Cc2ccc(OCc3ccccc3)cc2)NC1=O
alpha half-life (radioimmunoassay; healthy human male volunteers, plasma; subcutaneous, 100 µg): 1.6 ± 0.3 h

CC(C)(C)c1nn(-c2cc(OCc3cn(Cc4ccc(C(F)(F)F)cc4)nn3)c(Cl)cc2Cl)c(=O)o1
IC50 (Toxoplasma gondii; intracellular parasite growth, luminescence; HFF, wild type, NanoLuc reporter; 96 h): 1000 nM and < 2500 nM

CCCC[C@H](NC(C)=O)C(=O)N[C@H]1CCC(=O)NC[C@@H](C(=O)N[C@@H](Cc2c[nH]c3ccccc23)C(N)=O)NC(=O)[C@H](CCCNC(=N)N)NC(=O)[C@@H](Cc2ccccc2)NC(=O)[C@H](Cc2c[nH]cn2)NC1=O
Vd/F (human, plasma; subcutaneous, 3 mg, single dose, healthy volunteers): 348 L

CCCCCCCCCCCCCCC[C@H](O)[C@@H](N)CO
AUC (human, phase I, plasma; intravenous, 750 mg/m^2, day 1, monotherapy): 102 µM·h

CNC(=O)c1cc(Oc2ccc(NC(=O)Nc3ccc(Cl)c(C(F)(F)F)c3)cc2)ccn1
EC20 (cytochrome c release, ELISA; BALB/cByJ female mouse liver mitochondria; 30 min; relative to: alamethicin maximal release): > 400000 nM

CCOc1ccc2c(c1)C(C)=CC(C)(C)N2
residue concentration (LC-MS/MS; laying hens, skin/fat; oral, 50 mg/kg feed, 56 days): 298 ± 73.8 ng/g

O=C(/C=C/c1ccc(O)c(O)c1)O[C@H](Cc1ccc(O)c(O)c1)C(=O)O
AUC(0-t) (UPLC-MS/MS; Wistar rat, microcirculation dysfunction model, plasma; oral, 100 mg/kg Salvia miltiorrhiza stem-leaf extract FS): 222 ± 16.9 ng·h/mL

CN(C)Cc1cc(OCCC[18F])ccc1Sc1ccccc1N
tissue uptake (SERT; male Sprague Dawley rat, PCA-treated, striatum; intravenous, 60 min): 0.24 ± 0.07 %ID/g

CC(=O)CCc1ccc(O)cc1
AUC(0-12 h) (female C57BL/6J mice, low-fat diet, brain; oral, 200 mg/kg): 20.2 ± 6.72 nmol·min/g

Cc1c(Cl)cccc1Nc1ccccc1C(=O)O
EC20 (cytochrome c release, ELISA; BALB/cByJ female mouse liver mitochondria; 30 min; relative to: alamethicin maximal release): > 200000 nM

CC(C)[C@H](NC(=O)[C@@H]1CCCN1C(=O)[C@H](CCCNC(=N)N)NC(=O)[C@H](CS)NC(=O)[C@H](Cc1c[nH]c2ccccc12)NC(=O)[C@H](CCCNC(=N)N)NC(=O)[C@@H](Cc1ccccc1)NC(=O)[C@H](Cc1c[nH]cn1)NC(=O)[C@H](CCC(=O)O)NC(=O)[C@H](CS)NC(=O)[C@H](CS)NC(=O)[C@H](CCCCN)NC(=O)[C@@H]1CC(=O)N[C@@H](CCCNC(=N)N)C(=O)N[C@@H](C)C(=O)N[C@@H](CC(=O)O)C(=O)N[C@H](Cc2ccc(O)cc2)C(=O)N1)C(N)=O [technetium-99m labelled]
tissue uptake (C57 mice, skin; intravenous, 0.037 MBq, 0.5 h): 4.71 ± 0.49 %ID/g

For quick reference, copied from above:
CC(C)(C)c1nn(-c2cc(OCc3cn(Cc4ccc(C(F)(F)F)cc4)nn3)c(Cl)cc2Cl)c(=O)o1
IC50 (Toxoplasma gondii; intracellular parasite growth, luminescence; HFF, wild type, NanoLuc reporter; 96 h): 1000 nM and < 2500 nM
